Published values pooled from the literature.
Parts stem from different laboratories: compare values within a part only. Several values in a cell are separate wells, animals, samples, runs or records.
UniProt Q99640, sequence (whole entry, looked up): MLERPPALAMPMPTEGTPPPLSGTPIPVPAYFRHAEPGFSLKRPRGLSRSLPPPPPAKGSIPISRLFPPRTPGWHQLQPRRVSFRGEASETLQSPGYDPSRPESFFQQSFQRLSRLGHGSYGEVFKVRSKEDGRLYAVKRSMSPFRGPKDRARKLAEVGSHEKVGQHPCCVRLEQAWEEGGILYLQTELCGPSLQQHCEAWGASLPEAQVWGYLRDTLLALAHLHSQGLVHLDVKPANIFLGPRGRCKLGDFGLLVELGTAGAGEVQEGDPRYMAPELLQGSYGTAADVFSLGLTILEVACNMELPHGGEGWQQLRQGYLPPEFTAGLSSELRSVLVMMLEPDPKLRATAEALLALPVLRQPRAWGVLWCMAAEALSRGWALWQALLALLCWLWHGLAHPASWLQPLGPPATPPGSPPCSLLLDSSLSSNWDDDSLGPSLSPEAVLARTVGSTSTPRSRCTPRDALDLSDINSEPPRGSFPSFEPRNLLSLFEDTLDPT

Set 1
SMILES: COc1cc(C(=O)OCCCN2CCCN(CCCOC(=O)c3cc(OC)c(OC)c(OCc4ccc([N+](=O)[O-])cc4)c3)CC2)cc(OC)c1OC
Host: mice, male and female, formalin pain
Route: intrathecal
Added: formalin 5%, 20 µL intraplantar
Reading: higher = more pain
The “licking and flinching time” was 193 a.u. and 426 a.u. and 296 a.u. and 148 a.u. and 348 a.u. and 307 a.u. and 266 a.u. (1 nmol, 10-45 min).
For 1 nmol, 40-45 min after formalin: “licking and flinching time” read 3.38 a.u. and 6.95 a.u. and 4.01 a.u. and 8.28 a.u. and 53.2 a.u. and 33.5 a.u. and 6.48 a.u. and 43.5 a.u.
The “licking and flinching time” was 2.2 a.u. and 65.7 a.u. and 3.88 a.u. and 25.5 a.u. and 11.9 a.u. and 27.5 a.u. and 22.2 a.u. and 21.6 a.u. (1 nmol, 35-40 min after formalin).
100 nmol, 40-45 min after formalin — “licking and flinching time”: 2.77 a.u. and 1.07 a.u. and 2.25 a.u. and 3.72 a.u. and 6.11 a.u. and 0.54 a.u. and 7.37 a.u. and 18.3 a.u.
For 100 nmol, 5-10 min after formalin: “licking and flinching time” read 16.1 a.u. and 8.9 a.u. and 8.25 a.u. and 7.19 a.u. and 19.2 a.u. and 8.39 a.u. and 3.01 a.u. and 27.2 a.u.

Set 2
SMILES: CCN1CCN(Cc2ccc(COc3c(-c4c(C)c(F)cc5[nH]ncc45)c(C4CC4)cc4c(N5C[C@@H]6C[C@H]5CN6)nc(OC5CCOCC5)nc34)cc2)C(=O)C1
Cell line: A-375 (KRAS wild type)
Technique: in-cell ELISA
Refers to: phospho-ERK1/2
Time: 2 h
For 1 µM: ERK1/2 phosphorylation read 110% and 116% and 114% and 137%.
The ERK1/2 phosphorylation was 110% and 135% and 133% and 125% (100 nM).
For 10 µM: ERK1/2 phosphorylation read 149% and 120% and 109% and 116%.

Set 3
SMILES: CCN1/C(=C/C=C2\CCCC(/C=C/C3=[N+](CC)c4ccccc4C3(C)C)=C2NCCCCCCCCN2CCC(Nc3nc4ccccc4n3Cc3ccc(F)cc3)CC2)C(C)(C)c2ccccc21
Cell line: U-87 MG
Tested at: concentration not given
Relative to: DMSO
It gave -1.45 for “log2 fold change” (refers to: TGM2 mRNA).
For refers to: SGO1 mRNA: “log2 fold change” read -1.65.
The “log2 fold change” was -1.85 (refers to: RDH5 mRNA).
It gave -1.5 for “log2 fold change” (refers to: BOC mRNA).
For refers to: RAMP1 mRNA: “log2 fold change” read -2.95.
The “log2 fold change” was 1.71 (refers to: NFIL3 mRNA).
refers to: CENPO mRNA — “log2 fold change”: -1.73.
The “log2 fold change” was 1.64 (refers to: ERO1B mRNA).
refers to: ARMCX3 mRNA — “log2 fold change”: 1.03.
refers to: FERMT1 mRNA — “log2 fold change”: -1.06.
It gave -1.75 for “log2 fold change” (refers to: GCNT1 mRNA).

Mixed results
For Cc1ccc(O)c(C)c1-c1cnc2[nH]c(-c3cnc(N4CCC(CN5CCN(c6ccc(NC7CCC(=O)NC7=O)cc6F)CC5)CC4)nc3)cc2c1C#N (centres unmarked), the half-life was 12.1 h (cynomolgus monkey, male, plasma; oral, 10 mg/kg).
For Cc1ccc(O)c(C)c1-c1cnc2[nH]c(-c3cnc(N4CCC5(CC4)CC(N4CCN(c6ccc(N[C@H]7CCC(=O)NC7=O)cc6F)CC4)CO5)nc3)cc2c1C#N (single isomer, unassigned), “number of kinases bound” read 1 (KINOMEscan; 403 non-mutant kinase panel; 1000 nM, percent of control below 1).
Cc1ccc(O)c(C)c1-c1cnc2[nH]c(-c3cnc(N4CCC5(CC4)CC(N4CCN(c6ccc(N[C@H]7CCC(=O)N(C)C7=O)cc6F)CC4)CO5)nc3)cc2c1C#N (single isomer, unassigned) has an IC50 of 8.5 nM (PKMYT1 (Homo sapiens, UniProt Q99640); kinase activity, inhibitor, ADP-Glo).
For Cc1ccc(O)c(C)c1-c1cnc2[nH]c(-c3cnc(N4CCC(CN5CCN(c6ccc7c(c6)C(=O)N(C6CCC(=O)NC6=O)C7=O)CC5)CC4)nc3)cc2c1C#N (centres unmarked), “phospho-CDK1 (Thr14) level” read 110 a.u. (HCC1569; CDK1 Thr14 phosphorylation, in-cell western; 1000.00 nM; lower = stronger inhibition).

Repeated from above (set 3):
The “log2 fold change” was 1.64 (refers to: ERO1B mRNA).
refers to: ARMCX3 mRNA — “log2 fold change”: 1.03.
